Measurements collected from several papers.
Each line is one published result; not all experiments were run side by side. ± marks the error that the study gave. ≈ marks a conversion by molar mass, not a printed value.
Sequence of UniProt Q9Y5L0 (whole entry, looked up): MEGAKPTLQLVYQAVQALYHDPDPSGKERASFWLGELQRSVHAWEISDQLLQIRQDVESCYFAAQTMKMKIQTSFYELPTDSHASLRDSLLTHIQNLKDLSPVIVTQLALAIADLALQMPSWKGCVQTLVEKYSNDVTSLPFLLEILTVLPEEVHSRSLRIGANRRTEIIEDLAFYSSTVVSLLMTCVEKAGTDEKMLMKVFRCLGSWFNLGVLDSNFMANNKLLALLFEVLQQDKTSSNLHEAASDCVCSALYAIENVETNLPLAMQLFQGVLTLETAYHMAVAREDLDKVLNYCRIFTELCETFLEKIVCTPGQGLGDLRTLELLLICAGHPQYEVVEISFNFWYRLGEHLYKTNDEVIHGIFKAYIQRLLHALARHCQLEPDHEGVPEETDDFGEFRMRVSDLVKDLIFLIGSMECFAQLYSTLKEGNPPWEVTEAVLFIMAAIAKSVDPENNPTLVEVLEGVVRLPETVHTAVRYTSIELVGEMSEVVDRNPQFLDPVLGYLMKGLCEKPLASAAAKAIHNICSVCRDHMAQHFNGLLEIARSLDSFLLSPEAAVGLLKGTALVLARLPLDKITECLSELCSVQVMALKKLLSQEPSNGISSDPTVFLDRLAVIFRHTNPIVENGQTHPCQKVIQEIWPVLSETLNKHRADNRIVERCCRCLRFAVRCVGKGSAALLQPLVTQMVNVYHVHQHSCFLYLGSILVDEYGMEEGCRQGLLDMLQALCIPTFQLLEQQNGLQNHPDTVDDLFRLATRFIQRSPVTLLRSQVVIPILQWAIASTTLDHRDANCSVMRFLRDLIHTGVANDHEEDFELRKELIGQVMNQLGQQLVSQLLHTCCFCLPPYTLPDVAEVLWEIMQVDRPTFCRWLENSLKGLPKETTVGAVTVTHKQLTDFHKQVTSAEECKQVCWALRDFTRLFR

C[C@@H](O)[C@@H](CO)NC(=O)[C@@H](CCCNC(=N)N)NC(=O)[C@@H]1CCCN1C(=O)[C@@H]1CSSC[C@H](NC(=O)[C@H](Cc2ccccc2)NC(=O)CN2CCN(CC(=O)O)CCN(CC(=O)O)CCN(CC(=O)O)CC2)C(=O)N[C@@H](Cc2ccc(O)cc2)C(=O)N[C@@H](Cc2ccccc2)C(=O)N[C@@H](CCC(N)=O)C(=O)N[C@@H](CC(N)=O)C(=O)N1 [gallium-68 labelled] — tissue uptake (healthy Wistar rat, small intestine; intravenous, 8 MBq, 30 min, individual animals): 0.17 %ID/g
COc1cc2oc([N+](=O)[O-])cc2c2ccccc12 — MIC90 (Mycobacteroides abscessus; REMA; ATCC 19977): > 32 µg/mL
O=C(O)CSc1nnc(Br)n1-c1ccc(C2CC2)c2ccccc12 — maximum inhibition (human coronavirus OC43; virus-induced cell killing; MRC-5; screen): 14.3%
COc1cc2c(Oc3ccc4[nH]c(C)cc4c3F)ccnc2cc1OCC1(N)CC1 — grade 3 sinus bradycardia (paediatric recurrent refractory sarcoma; 8 mg): 0%
CC[C@H](C)[C@H](NC(=O)[C@H](Cc1ccccc1)NC(=O)[C@H](CCC(=O)O)NC(=O)[C@H](CCCNC(=N)N)NC(=O)[C@H](C)NC(=O)[C@H](C)NC(=O)[C@H](CCC(N)=O)NC(=O)[C@H](CCC(=O)O)NC(=O)[C@H](CCC(=O)O)NC(=O)[C@H](CC(C)C)NC(=O)[C@H](Cc1ccc(O)cc1)NC(=O)[C@H](CO)NC(=O)[C@H](CO)NC(=O)[C@@H](NC(=O)[C@H](CC(=O)O)NC(=O)[C@H](CO)NC(=O)[C@@H](NC(=O)[C@H](Cc1ccccc1)NC(=O)[C@@H](NC(=O)CNC(=O)[C@H](CCC(=O)O)NC(=O)[C@H](C)NC(=O)CCc1c[nH]cn1)[C@@H](C)O)[C@@H](C)O)C(C)C)C(=O)N[C@@H](C)C(=O)N[C@@H](Cc1c[nH]c2ccccc12)C(=O)N[C@@H](CC(C)C)C(=O)N[C@H](C(=O)N[C@@H](CCCNC(=N)N)C(=O)NCC(=O)N[C@@H](CCCNC(=N)N)C(=O)N[C@@H](CCCCNC(=O)COCCOCCNC(=O)COCCOCCNC(=O)CC[C@H](NC(=O)CCCCCCCCCCCCCCCCC(=O)O)C(=O)O)C(=O)NCC(=O)NCC(=O)N[C@@H](CO)C(=O)N[C@@H](CCCCNc1c(NCCCCCN(O)C(=O)CCC(=O)NCCCCCN(O)C(=O)CCC(=O)NCCCCCN(O)C(C)=O)c(=O)c1=O)C(=O)O)C(C)C [zirconium-89 labelled] — tissue uptake (ex vivo gamma counting; rat, knee; subcutaneous, 3 nmol/kg, 168 h, together with: [89Zr]-labelled peptide): 0.22 %ID/g
COC(=O)N[C@H](C(=O)N1CCC[C@H]1c1ncc(-c2ccc(-c3ccc(-c4cnc([C@@H]5CCCN5C(=O)[C@@H](NC(=O)OC)C(C)C)[nH]4)cc3)cc2)[nH]1)C(C)C — combination index (Hepatitis C virus; replicon cells, genotype 1a; 50% effect level, together with: NS3 inhibitor, ratio 2.5:1): 1.12
Cn1c(=O)ccc2ccc(F)c(CCNC[C@H]3CN(c4cnc5c(n4)NC(=O)CO5)C(=O)O3)c21 — MIC90 (Serratia marcescens): 1 µg/mL (≈ 2.13 µM)
CCOC(=O)c1[nH]c2cc(Cl)ccc2c1C(C(=O)NC(C)(C)C)N(C=O)Cc1ccc(Cl)cc1 (stereo not shown) — maximum inhibition (human coronavirus OC43; virus-induced cell killing; MRC-5; maximum over 10 doses): 0%
CCCCc1ccc(CNc2nc(N(C)C)nc(N(C)C)c2/N=N/c2ccc(Cl)cc2)cc1 — mortality (Ostrinia furnacalis; leaf dipping; 25 mg/L): 56.7%
CC[C@H](C)[C@@H]1NC(=O)[C@@H]2CCCN2C(=O)[C@H](CC(C)C)NC(=O)[C@H](CC(C)C)NC(=O)CNC(=O)[C@@H](NC(=O)[C@@H](NC(=O)[C@H](CC(=O)O)NC(=O)CNC(=O)[C@@H](NC(=O)[C@H](C)NC(=O)CNC(=O)[C@H](CCCCN)NC(=O)[C@H](CC(C)C)NC(=O)[C@H](CC(C)C)NC(=O)[C@H](CCCCN)NC(=O)CNC(=O)[C@@H](NC(=O)[C@@H](N)CC(C)C)C(C)C)C(C)C)C(C)C)CSSC[C@@H](C(=O)O)NC1=O — log2 fold change (RNA-seq, refers to: Trbc1; mouse, traumatic brain injury model, frontal cortex and hippocampus; dose not given; baseline: TBI alone): -2.83
C[C@H]1CN(c2n[nH]c3nc(N[C@H]4CC[C@H](NS(=O)(=O)CCC(F)(F)F)CC4)ncc23)CCO1 — remaining binding (Transportin-3 (Homo sapiens, UniProt Q9Y5L0); Kinobeads competition, refers to: TNPO3; 0.8 µM, unit not given; baseline: vehicle): 1.13
Nc1ncnc2c1ncn2[C@@H]1O[C@@H]2COP(=O)(O)O[C@H]3[C@@H](O)[C@H](n4cnc5c(=O)[nH]cnc54)O[C@@H]3COP(=O)(O)O[C@H]2[C@H]1O — fold enrichment (West Nile virus; RNA sequencing, refers to: effectors, RHO GTPase, R-HSA-195258; HFF-1 cells; concentration not given, upregulated pathway; baseline: WNV-infected untreated cells): 2.56
CN(C)C(=O)N1CC[C@H](N=C2Nc3cc(F)ccc3N(CC(F)F)c3ccc(Cl)cc32)C1 — inhibition (mouse hepatitis virus; viral replication; nanoluciferase reporter; 1 µM): 10%
Oc1ccc(Nc2nc(-c3ccc(Cl)cc3)cs2)cc1 — maximum inhibition (human coronavirus OC43; virus-induced cell killing; MRC-5; screen): 31.7%
C[C@@H]1C[C@@H]([C@H](O)CC2CC(=O)NC(=O)C2)C(=O)[C@@H](C)C1 — AC50 (Mus musculus; gene silencing, high-content imaging; LDR reporter GFP cells; retest run 2): 5.01 µM
Nc1nc2c(ncn2COCCO)c(=O)[nH]1 — IC50 (human alphaherpesvirus 2; viral replication, RT-qPCR; resistant to compound): 74.5 ± 4.19 µM
N#Cc1ccc(C(c2ccc(C#N)cc2)n2cncn2)cc1 — maximum inhibition (human coronavirus OC43; virus-induced cell killing; MRC-5; maximum over 10 doses): 0%
COc1cc(Nc2ncc(F)c(Nc3ccc4c(n3)NC(=O)C(C)(C)O4)n2)cc(OC)c1OC — IC50 (PPP3CA (Homo sapiens, UniProt Q08209); phosphatase activity, inhibitor): > 10 µM
CC[C@H](C)[C@H](NC(=O)[C@H](C)NC(=O)[C@H](CCCCN)NC(=O)[C@H](CC(C)C)NC(=O)[C@H](C)NC(=O)[C@@H](NC(=O)[C@H](Cc1c[nH]cn1)NC(=O)[C@H](CC(C)C)NC(=O)[C@@H](NC(=O)[C@@H](NC(=O)[C@H](CCCCN)NC(=O)[C@H](C)NC(=O)[C@H](C)NC(=O)[C@H](CO)NC(=O)[C@H](CCCCN)NC(=O)[C@H](Cc1ccccc1)NC(=O)[C@@H](NC(=O)[C@H](CCCCN)NC(=O)[C@H](CC(C)C)NC(=O)[C@H](Cc1ccccc1)NC(=O)[C@H](CO)NC(=O)[C@H](CCCCN)NC(=O)[C@H](Cc1c[nH]c2ccccc12)NC(=O)[C@H](CCCCN)NC(C)=O)[C@@H](C)O)[C@@H](C)O)C(C)C)[C@@H](C)O)C(=O)N[C@@H](CO)C(=O)N[C@@H](CO)C(N)=O — MBC range (Streptococcus pyogenes; ATCC 13813; 1 strain): 16 µg/mL (≈ 5.45 µM)

A few entries again:
CC[C@H](C)[C@H](NC(=O)[C@H](Cc1ccccc1)NC(=O)[C@H](CCC(=O)O)NC(=O)[C@H](CCCNC(=N)N)NC(=O)[C@H](C)NC(=O)[C@H](C)NC(=O)[C@H](CCC(N)=O)NC(=O)[C@H](CCC(=O)O)NC(=O)[C@H](CCC(=O)O)NC(=O)[C@H](CC(C)C)NC(=O)[C@H](Cc1ccc(O)cc1)NC(=O)[C@H](CO)NC(=O)[C@H](CO)NC(=O)[C@@H](NC(=O)[C@H](CC(=O)O)NC(=O)[C@H](CO)NC(=O)[C@@H](NC(=O)[C@H](Cc1ccccc1)NC(=O)[C@@H](NC(=O)CNC(=O)[C@H](CCC(=O)O)NC(=O)[C@H](C)NC(=O)CCc1c[nH]cn1)[C@@H](C)O)[C@@H](C)O)C(C)C)C(=O)N[C@@H](C)C(=O)N[C@@H](Cc1c[nH]c2ccccc12)C(=O)N[C@@H](CC(C)C)C(=O)N[C@H](C(=O)N[C@@H](CCCNC(=N)N)C(=O)NCC(=O)N[C@@H](CCCNC(=N)N)C(=O)N[C@@H](CCCCNC(=O)COCCOCCNC(=O)COCCOCCNC(=O)CC[C@H](NC(=O)CCCCCCCCCCCCCCCCC(=O)O)C(=O)O)C(=O)NCC(=O)NCC(=O)N[C@@H](CO)C(=O)N[C@@H](CCCCNc1c(NCCCCCN(O)C(=O)CCC(=O)NCCCCCN(O)C(=O)CCC(=O)NCCCCCN(O)C(C)=O)c(=O)c1=O)C(=O)O)C(C)C [zirconium-89 labelled] — tissue uptake (ex vivo gamma counting; rat, knee; subcutaneous, 3 nmol/kg, 168 h, together with: [89Zr]-labelled peptide): 0.22 %ID/g
CCOC(=O)c1[nH]c2cc(Cl)ccc2c1C(C(=O)NC(C)(C)C)N(C=O)Cc1ccc(Cl)cc1 (stereo not shown) — maximum inhibition (human coronavirus OC43; virus-induced cell killing; MRC-5; maximum over 10 doses): 0%
C[C@@H](O)[C@@H](CO)NC(=O)[C@@H](CCCNC(=N)N)NC(=O)[C@@H]1CCCN1C(=O)[C@@H]1CSSC[C@H](NC(=O)[C@H](Cc2ccccc2)NC(=O)CN2CCN(CC(=O)O)CCN(CC(=O)O)CCN(CC(=O)O)CC2)C(=O)N[C@@H](Cc2ccc(O)cc2)C(=O)N[C@@H](Cc2ccccc2)C(=O)N[C@@H](CCC(N)=O)C(=O)N[C@@H](CC(N)=O)C(=O)N1 [gallium-68 labelled] — tissue uptake (healthy Wistar rat, small intestine; intravenous, 8 MBq, 30 min, individual animals): 0.17 %ID/g
